Results of several laboratories.
Lines come from different studies, so protocols differ.
EGFR A750P/del747-749: Epidermal growth factor receptor (EGFR, Homo sapiens, UniProt P00533, A750P/del747-749)
EGFR L858R: Epidermal growth factor receptor (EGFR, Homo sapiens, UniProt P00533, L858R)

CNC(=O)C1CCN(c2cc(C)c(F)cc2NC(=O)c2ccc(-c3cc(O)ccc3C)c(C)c2)CC1 — remaining binding (Epidermal growth factor receptor (EGFR, Homo sapiens, UniProt P00533, G719C); binding, competition with immobilised ligand; 1 µM): 65%
CN1CCN(Cc2ccc(NC(=O)c3cccc(C#Cc4cnc(N)c5ncccc45)c3)cc2C(F)(F)F)CC1 — remaining binding (Epidermal growth factor receptor (EGFR, Homo sapiens, UniProt P00533); cell-free assay, competition with immobilised ligand; 0.5 µM): 17%
C=CC(=O)N1CCc2ccc(-n3c(=O)ccc4cnc5ccc(-c6cnn(C)c6)cc5c43)cc21 — remaining binding (Epidermal growth factor receptor (EGFR, Homo sapiens, UniProt P00533, del746-750); KINOMEscan; 1 µM; reference: DMSO control): 100%
CNC1C[S+]2CC[S+]3CC[S+](C1)[Ru-4]321([N]=C=S)[n]2c3ccc(OC)cc3c3c4c(c5cc(F)c[n+]1c5c32)C(=O)NC4=O (stereo not shown) — remaining binding (EGFR A750P/del747-749; KinomeScan; 0.1 µM; reference: untreated): 92%
CCN1CCN(Cc2ccc(NC(=O)c3ccc(C)c(NC(=O)c4cncc(-c5cccs5)c4)c3)cc2C(F)(F)F)CC1 — remaining binding (Epidermal growth factor receptor (EGFR, Homo sapiens, UniProt P00533, del747-752/P753S); binding, competition with immobilised ligand; 1 µM): 0.3%
COc1ccc(NC(=O)Nc2ccc3c(c2)C(=O)N(C(C)CO)CC(C)C(CN(C)Cc2ccc4c(c2)OCO4)O3)cc1 (stereo not shown) — remaining binding (EGFR L858R; binding, competition with immobilised ligand; 10 µM): 60%
CCN1CCN(Cc2ccc(C(=O)Nc3ccc(C)c(NCc4cnc5[nH]ccc5c4OC)c3)cc2C(F)(F)F)CC1 — remaining binding (EGFR A750P/del747-749; binding, competition with immobilised ligand; 1 µM): 2.6%
C=CC(=O)N1CCCC(n2c(=O)c3ncccc3n(Cc3ccc(Oc4ccccc4)cc3)c2=O)C1 (stereo not shown) — remaining binding (Epidermal growth factor receptor (EGFR, Homo sapiens, UniProt P00533, T790M); cell-free assay, competition with immobilised ligand; 1 µM): 96%
CNS(=O)(=O)Nc1nccc(Cc2c(C)c3ccc(Oc4ncccc4F)cc3oc2=O)c1F — remaining binding (EGFR L858R; cell-free assay, competition with immobilised ligand; 10 µM): 90%
Nc1ncc2c(n1)-c1c([nH]c3ccc(C4=CCOCC4)cc13)CCC2 — remaining binding (Epidermal growth factor receptor (EGFR, Homo sapiens, UniProt P00533, L861Q); binding, competition with immobilised ligand; 1 µM): 91%
Cc1ccc(-c2c(/C=C(\C#N)C(=O)NC(C)C)n(CCCO)c3ncnc(N)c23)cc1 — remaining binding (Epidermal growth factor receptor (EGFR, Homo sapiens, UniProt P00533, del752-759); cell-free assay, competition with immobilised ligand; 1 µM): 100%
COc1c(Cl)cccc1Nc1c(-c2ccncc2C#C[C@@]2(C)CCCN2C(=O)/C=C/CN(C)C)[nH]c2c1C(=O)NCC2 — remaining binding (EGFR L858R; cell-free assay, competition with immobilised ligand; 3 µM): 0%
CC(C)=CC1OC(C)(C)C2C=C3C(=O)C(Cl)=CC(O)C3C3C(O)C4OC4C(=O)C132 (stereo not shown) — remaining binding (EGFR A750P/del747-749; cell-free assay, competition with immobilised ligand; 10 µM): 78%
